Published values of several laboratories.
Numbered parts are unrelated; each lists some results of a single study.

Set 1 — technique: universal PBM; molecule type: double-stranded DNA, one strand shown; sample: in vitro; tested at: not given; direction: higher = stronger binding; quantity: E-score
Target: Sal-like protein 4, full length isoform B (SALL4, Homo sapiens, UniProt Q9UJQ4-2, residues 1-616)
Setting: 8-mer, flanks averaged, mean of replicates
Construct (chain): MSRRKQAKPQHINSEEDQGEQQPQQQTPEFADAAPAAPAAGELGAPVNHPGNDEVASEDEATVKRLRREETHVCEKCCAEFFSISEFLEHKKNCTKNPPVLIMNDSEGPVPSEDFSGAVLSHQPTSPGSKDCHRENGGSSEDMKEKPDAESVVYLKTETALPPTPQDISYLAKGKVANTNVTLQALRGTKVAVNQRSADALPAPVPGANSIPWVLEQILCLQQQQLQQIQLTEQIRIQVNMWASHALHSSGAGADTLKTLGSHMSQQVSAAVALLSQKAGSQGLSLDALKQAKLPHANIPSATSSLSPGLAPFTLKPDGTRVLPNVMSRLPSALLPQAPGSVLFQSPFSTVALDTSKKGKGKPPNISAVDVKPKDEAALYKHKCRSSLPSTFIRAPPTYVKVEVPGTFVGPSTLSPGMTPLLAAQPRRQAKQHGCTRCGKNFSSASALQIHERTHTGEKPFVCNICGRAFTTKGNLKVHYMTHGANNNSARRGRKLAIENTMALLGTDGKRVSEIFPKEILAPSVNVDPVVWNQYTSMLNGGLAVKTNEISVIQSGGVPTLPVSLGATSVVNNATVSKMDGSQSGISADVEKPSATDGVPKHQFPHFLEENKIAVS
ACAGAGTC: -0.193
CCGCCACA: -0.273
GATGGTAC: -0.0688
CGCACAGC: -0.295
GGGTCAAA: -0.133
GATATAAA: 0.292
CGCTCGCC: -0.311
AGGGCAAC: -0.15
ATACTACG: 0.0739
ATGCACAA: 0.152
CAGTTATC: 0.102
ACAAGCTC: -0.109
GAAAATGC: 0.0882
CCAGTGGG: -0.342
ACACTGCC: -0.0709
AAGCGACA: -0.111
ATCGTCAA: 0.157
AAGTCACA: 0.204

Set 2 — technique: aptamer microarray, sandwich; molecule type: DNA with 2'F-ANA; sample: in vitro; tested at: 200 nM; added: Cy3 exosite-II aptamer, 400 nM; direction: higher = stronger binding; quantity: mean fluorescence intensity; sequence: GGTTGGTGTGGTTGG
Target: Prothrombin, mature alpha-thrombin (F2, Homo sapiens, UniProt P00734)
Setting: whole 15-mer aptamer, many near background
2'F-ANA at 2 6 12: 681 a.u.
2'F-ANA at 1 2 3 4 5 7 8 10 15: 48.3 a.u.
2'F-ANA at 6 7 8 10 11 12: 207 a.u.
2'F-ANA at 1 4 5 8 9 10 13 15: 71.8 a.u.
2'F-ANA at 1 4 6 10 11 14: 50.1 a.u.
2'F-ANA at 1 2 4 5 10 11 12: 48.6 a.u.
2'F-ANA at 1 4 5 6 7 8: 62.9 a.u.
2'F-ANA at 2 3 5 8 13 14 15: 58.7 a.u.
2'F-ANA at 2 3 4 8 11 12 13: 624 a.u.
2'F-ANA at 1 3 4 6 8 9 10 11 12: 92.2 a.u.
2'F-ANA at 1 2 3 6 11 12 13 15: 299 a.u.
2'F-ANA at 1 2 3 7 12 15: 451 a.u.
2'F-ANA at 1 2 3 4 5 6 7 8 9 10 14 15: 46 a.u.
2'F-ANA at 1 2 5 8 9 11 13 14 15: 46.2 a.u.
2'F-ANA at 1 5 6 8 10 13: 47.9 a.u.
2'F-ANA at 1 2 3 5 6 7 8 9 10: 49.6 a.u.
2'F-ANA at 3 8 10: 677 a.u.
2'F-ANA at 2 3 7 8 10 12 15: 506 a.u.
2'F-ANA at 2 3 4 8 13: 581 a.u.
2'F-ANA at 2 3 6 7 9 10 11 12 13 14: 225 a.u.
2'F-ANA at 1 3 5 6 11: 54.4 a.u.

Set 3 — technique: protein binding microarray; molecule type: double-stranded DNA, one strand shown; sample: in vitro; tested at: not given; relative to: not given; direction: higher = stronger binding; quantity: E-score
Target: Histone acetyltransferase KAT6A, winged helix 1, GST fusion (KAT6A, Homo sapiens, UniProt Q92794, residues 1-85)
Setting: 8-mer, flanks averaged, mean of 2 arrays, mostly near background
Target sequence (chain): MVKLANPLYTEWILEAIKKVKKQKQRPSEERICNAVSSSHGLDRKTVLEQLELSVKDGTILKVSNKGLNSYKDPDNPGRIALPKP
CAATGGCC: -0.0334
AATAGCGT: 0.123
ATTATCAG: -0.128
AACCGGTA: 0.241
CCAATACG: 0.0692
AAGTGGAT: -0.159
CGAGGCAC: -0.0429
CTGTCACA: -0.143
CGTCAACA: 0.169
CTAAGCCC: 0.0392
ATTCGGTC: 0.0122
GGGAGACC: 0.094
CGTCTCCA: 0.132
GTCTTCAA: -0.213

Set 4 — technique: protein-binding microarray; molecule type: double-stranded DNA, one strand shown; sample: in vitro; tested at: 2540 nM top; setting: 60-bp whole probe; added: salmon DNA 0.4 mg/ml; relative to: random background probes; direction: higher = stronger binding; quantity: fitted relative affinity; constant ends, left off below: GCCTAGCAC … GTCTTGATTCGCTTGACGCTGCTG
Target: Interferon regulatory factor 3, full length, phosphomimetic (IRF3, Homo sapiens, UniProt Q14653, residues 1-427, S386D/S396D/S398D/S402D/T404D/S405D)
Chain of UniProt Q14653 (whole entry, unmodified, looked up): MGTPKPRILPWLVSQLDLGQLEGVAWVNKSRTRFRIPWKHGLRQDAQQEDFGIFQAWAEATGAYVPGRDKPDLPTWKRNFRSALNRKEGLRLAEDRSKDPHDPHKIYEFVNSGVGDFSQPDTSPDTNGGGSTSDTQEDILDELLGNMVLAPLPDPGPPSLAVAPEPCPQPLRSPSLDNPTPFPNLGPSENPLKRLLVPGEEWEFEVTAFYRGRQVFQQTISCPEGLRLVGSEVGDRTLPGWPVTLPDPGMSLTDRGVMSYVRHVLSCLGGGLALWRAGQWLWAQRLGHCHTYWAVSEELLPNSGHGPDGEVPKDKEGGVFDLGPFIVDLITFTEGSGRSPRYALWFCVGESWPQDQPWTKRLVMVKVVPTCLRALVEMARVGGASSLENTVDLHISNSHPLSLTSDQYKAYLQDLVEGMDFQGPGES
TTAGGACGGGACTTTCGGTTAGTGCTA: 1.22 z-score
GACGGACCGGGTATCGGGACGTGCTAG: 0.086 z-score
TTAGGTTTCGTTATCGGTTAGTGCTAG: 6.47 z-score
CTCTGGGGCTCCAGGGAGAAGTGCTAG: -1.34 z-score
CTCTGCTTCTGTATGGGCATGTGCTAG: -0.343 z-score
TTTGGACTGGACTTTCGGTTAGTGCTA: 0.959 z-score
GAAGATTTCAATTAGAAAAAGTGCTAG: 0.714 z-score
ATAAATATGAGACTGGGGATGTGCTAG: -0.286 z-score
TGCTCTTTCTACATAGATGTGTGCTAG: 1.75 z-score
GACCATTTCAGACTGGAGACGTGCTAG: 1.96 z-score
GACGTTATCGACTTTCGGGACGTGCTA: 0.865 z-score
AAAATGATTGGTTGAACATGGTGCTAG: -0.152 z-score
GACGATTTCAGACTGGAGCCGTGCTAG: 0.925 z-score
CCGTGTTTCTCAACCATTTTGTGCTAG: 1.24 z-score
TTAAGAATGTTTTTCATTGTGTGCTAG: -0.0508 z-score
AACGGTTTCGGGTATCGGGACGTGCTA: 4.64 z-score
GACGGTCTCCAACTGCTGACGTGCTAG: 0.854 z-score
TTTTTCTCCTATTTAAGACAGTGCTAG: 3.48 z-score
TTAGGTATAGGACTGGGTTAGTGCTAG: -0.699 z-score

Set 5 — technique: RNA Bind-n-Seq; molecule type: RNA; sample: in vitro; tested at: 200 nM; setting: whole 134-nt RNA, ends assumed; added: 150 mM KCl; relative to: input library; direction: higher = stronger binding; quantity: log2 enrichment
Target: Ras GTPase-activating protein-binding protein 1, full length (G3BP1, Homo sapiens, UniProt Q13283)
Chain of UniProt Q13283 (whole entry, looked up): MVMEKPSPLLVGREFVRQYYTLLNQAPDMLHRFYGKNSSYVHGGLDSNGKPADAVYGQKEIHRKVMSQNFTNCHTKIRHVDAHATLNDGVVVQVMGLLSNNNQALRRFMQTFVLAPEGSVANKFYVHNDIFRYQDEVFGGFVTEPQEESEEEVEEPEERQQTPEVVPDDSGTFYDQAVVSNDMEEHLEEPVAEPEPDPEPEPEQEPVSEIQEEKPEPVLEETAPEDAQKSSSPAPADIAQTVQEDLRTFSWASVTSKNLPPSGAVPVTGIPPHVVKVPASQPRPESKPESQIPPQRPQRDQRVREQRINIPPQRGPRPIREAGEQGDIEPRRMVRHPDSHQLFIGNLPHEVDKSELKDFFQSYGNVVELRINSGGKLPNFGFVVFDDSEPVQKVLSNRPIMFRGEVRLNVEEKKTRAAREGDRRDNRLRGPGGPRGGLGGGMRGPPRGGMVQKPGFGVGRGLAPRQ
Constant ends, left off below: GGGAGUUCUACAGUCCGACGAUC … UGGAAUUCUCGGGUGUCAAGG
ACCAUGCAGGUGGGCAUCUUUGGGAAGUGGGGCAAGGGGGGGAUAGGGAGGGGGGUAACACUUUGGGAACAGGUAGUCCCAGGUCGUUUC: 1.18
ACCAUGGAGGUGGGCAUCUUUGGGAAGUGGGGCAAGGGGGGGAUAGGGAGGGGGGUAACACUUUGGGAACAGGUGGUCCCAGGUCGUUUC: 1.23
UGGGAGGUGGAUUUUUUUUAUUUUUUUAGCUCAUUUCCAGGGGUGGGAAUUUUUUUUUAAUAUGUGUCAUGAAUAAAGUUGUUUUUGAAA: 0.414
UCAAGUCCUGUGCUACACAUCGUAUGUACCGAAUCGGGCCGGGGCCGGCCGGGGAAAGUAUUAUGUUACGCCGUUCGGAUCUGCACUUCC: -0.397
UUUUAGGAAGCUGCAGUAAAGGAAGAUGAAGAAGAAGUUUCAGAUAAGGGCAGUGAUUCUGAAGAAGAAGAAACCAAUAGAGAUUCCCAA: -1.02
UCCUGUGCUACACAUCGUAUGUACCGAAUCGGGGUUUGGGGAAAAAGGGGAAAAAGGGGAAAGUAUUAUGUUACGCCGUUCGGAUCUGCA: 0.71
AGUCCUGUGCUACACAUCGUAUGUACCGAAUCGGGGAGGGGAGGGGUUUUUUUGGGGAAAGUAUUAUGUUACGCCGUUCGGAUCUGCACU: 0.537
GACUCUGAAGAAGAAGCUAUGGAGACUACACCAGCCAAAGGAAAGAAAGCUGCAAAAGUUGUUCCUGUGAAAGCCAAGAACGUGGCUGAG: -1.61
GUCCUGUGCUACACAUCGUAUGUACCGAAUCAAACCCCCAAACCCAAACCCCCCCAAAAAAGUAUUAUGUUACGCCGUUCGGAUCUGCAC: -0.294

A few entries again (set 2):
2'F-ANA at 1 4 6 10 11 14: 50.1 a.u.
2'F-ANA at 1 2 4 5 10 11 12: 48.6 a.u.
2'F-ANA at 1 4 5 6 7 8: 62.9 a.u.
2'F-ANA at 2 3 5 8 13 14 15: 58.7 a.u.
2'F-ANA at 2 3 4 8 11 12 13: 624 a.u.
2'F-ANA at 1 3 4 6 8 9 10 11 12: 92.2 a.u.
2'F-ANA at 1 2 3 6 11 12 13 15: 299 a.u.
2'F-ANA at 1 2 3 7 12 15: 451 a.u.
2'F-ANA at 1 2 3 4 5 6 7 8 9 10 14 15: 46 a.u.
2'F-ANA at 1 2 5 8 9 11 13 14 15: 46.2 a.u.
